# Published values gathered from unrelated publications.
# A part holds a random share of what one study measured.

# Series 1
# Target: RNA binding protein fox-1 homolog 2, RRM domain, GST-SBP tag (RBFOX2, Homo sapiens, UniProt O43251-10, residues 100-194)
# Technique: RNA Bind-n-Seq
# Molecule type: RNA
# Matrix: in vitro
# Concentration: 365 nM
# Setting: natural RNA segment, single round, ends assumed
# Reference: no-protein control
# Direction: higher = stronger binding
# Construct (chain): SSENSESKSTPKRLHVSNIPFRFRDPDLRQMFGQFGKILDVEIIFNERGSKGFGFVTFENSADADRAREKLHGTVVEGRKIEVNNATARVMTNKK
Oligonucleotide,RBNS enrichment (R)
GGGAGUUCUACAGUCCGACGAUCAGAAUGAUGGAUGUAAAUUGGAUGUAAAUAUUCAGUUUAUAUAAUUAUAUCUAAUUUGUACCCUUGUUGAAAUUGUCAUUUAUACAAUAAAGCGAAUUCUUUAUCUCUAAUGGAAUUCUCGGGUGCCAA,0.335
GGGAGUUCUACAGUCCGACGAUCGACACCCAUACCUGUAUAUACAUGCUCGAGAAAGCUGUAAUGUGAAAAUCAUGUUCUCUAUUUAUGACUCUUCCUAGGGCAAUGUGUCUGGACAGAUUGUAAGAGUAAGUUGGAAUUCUCGGGUGCCAA,0.276
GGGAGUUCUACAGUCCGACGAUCCAGAGAAGCAUCCUCCACAUCCUGUGUCAGAAACCCUGGUCUCCGUGGCACUUGUAACUCACCGUGCUGUCUUCUGGUCUGUGUGUGUUCUUCAAGCCAGCUCUAGGCUUUGGAAUUCUCGGGUGCCAA,1.46
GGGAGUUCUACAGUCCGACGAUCUGAAGUUGGCUUACAUUUCUACAGUGUUAGGGGCGUAGGAGAAUUGGGGCCAACAUCCCAUCAGAAGAUUCGUGAGUCAGUGUAGUUUAGUGUCAAAGCAGCUUGUGUUGUGGAAUUCUCGGGUGCCAA,2.12
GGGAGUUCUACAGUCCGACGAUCUGGUGGGGAGGAGGGAAGCUUAACUCAAGUUUGGGUUAGUGAGUUAGCAAGCUCUUUGUGCAGAUGGGGAUGUAGGUAAAUCUUUUUAAAAGUGAAAUUAACCUCCUGCCUGGAAUUCUCGGGUGCCAA,2.19
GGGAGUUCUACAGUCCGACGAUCGAUGAACAACAAUUCAACGUGCUUCUCUCAGUGCCUGGAGGAUGCAGCUCUCCACACGCAGGGACUUUAUUUGGGGACAUCUGUCACCUUUGGGGUUGCCAUGGCCAAUGUGGAAUUCUCGGGUGCCAA,0.433
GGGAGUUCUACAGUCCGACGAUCUUCUGUAUCAAAAUGGACUGUUCAUAUCAGAGCUGAGAACUAAAGCACUUCGUUCAUUAUCAGAAAACUGGAGGAAUUUAGAGAGAGGAAAUCUACGAUUUCUAAUUACCUGGAAUUCUCGGGUGCCAA,0.31
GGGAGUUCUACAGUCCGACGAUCGGCUGGACCACCAUCUGUACCGUUGCGUCCACAGUGUGCAUUCUGAGGUAUCACUCAGGGUGCCAAGUACACACUCAUCCUCCAGGCAACAGAGAGGAUGGGGCUCCCCGUGGAAUUCUCGGGUGCCAA,0.193
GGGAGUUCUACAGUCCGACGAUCGGUUUGAAACUGUAUAGGAAGAACAGGUAAAGGCAGGUGGAGUGCACACAGAUCGCACCACAUGGCUUGUAAUGAUUUUCUGUGUCUGUCAUCGUCAGCGUGUCAUCUGGUGGAAUUCUCGGGUGCCAA,0.731

# Series 2
# Target: Interferon regulatory factor 3, full length, phosphomimetic (IRF3, Homo sapiens, UniProt Q14653, residues 1-427, S386D/S396D/S398D/S402D/T404D/S405D)
# Chain of UniProt Q14653 (whole entry, unmodified, looked up): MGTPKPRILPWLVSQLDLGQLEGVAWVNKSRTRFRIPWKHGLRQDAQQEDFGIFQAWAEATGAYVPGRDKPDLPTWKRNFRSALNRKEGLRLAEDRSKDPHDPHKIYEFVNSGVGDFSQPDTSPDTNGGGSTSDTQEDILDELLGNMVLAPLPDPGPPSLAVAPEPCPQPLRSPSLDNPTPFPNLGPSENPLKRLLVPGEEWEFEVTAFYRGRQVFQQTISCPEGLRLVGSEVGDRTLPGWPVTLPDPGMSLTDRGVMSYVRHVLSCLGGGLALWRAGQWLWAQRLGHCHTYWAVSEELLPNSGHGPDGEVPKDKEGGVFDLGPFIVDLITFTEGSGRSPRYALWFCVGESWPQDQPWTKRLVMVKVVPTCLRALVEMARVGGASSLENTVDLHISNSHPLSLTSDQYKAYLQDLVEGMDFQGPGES
# Technique: protein-binding microarray
# Molecule type: double-stranded DNA, one strand shown
# Matrix: in vitro
# Concentration: 2540 nM top
# Setting: 60-bp whole probe
# Together with: salmon DNA 0.4 mg/ml
# Reference: random background probes
# Direction: higher = stronger binding
# All sequences stand within: GCCTAGCAC … GTCTTGATTCGCTTGACGCTGCTG
Oligonucleotide,fitted relative affinity [z-score]
GACGAACTGAATATCGAGACGTGCTAG,0.352
GACGGTCTCCTTATCCTGCCGTGCTAG,2.5
TCAATTTTGTGTTTTCAACTGTGCTAG,0.675
GACGACATCGGGTTTCGAGACGTGCTA,0.38
TCATCTTGCAGTATGGAACTGTGCTAG,1.03
CCCTGTCTGTCCAGAAACCCGTGCTAG,0.564
GAGGGTATCGACTATCGGGACGTGCTA,-0.294
GCTTTTATGGTATTTTTTTCGTGCTAG,0.719
TTAGGACTGGGTCGCGGTTAGTGCTAG,-0.786
CACAGTTTGTAAATCTTTTTGTGCTAG,0.554
TTAGGAGTGGGGTATCGGTTAGTGCTA,0.0173
GACGGTATCGGTATTGGGACGTGCTAG,3.96
GGATGAGTCACTTCTGGTGCTGTGCTA,-0.236
TCAATTTACATTTTAGTACTGTGCTAG,1.59
GACGGACTGGACTATCGCGACGTGCTA,-0.595
TCACAGCTCCCTTTCTCACTGTGCTAG,2.16
TATTTTATATGCTATGTACTGGTGCTA,0.432
TTCTGAATGCCCTCTAACTTCGTGCTA,-0.017
GACGATATCGGGTATCGAGACGTGCTA,0.241
TAAGATTTCGGGTATCGATTAGTGCTA,1.52
GTGTTTGTCCCTATTTAAGAGTGCTAG,1.37
CCAGTTGAGCACAGGAAAGTGTGCTAG,0.116
GACGGTCTCGAACTGGGGACGTGCTAG,0.249
GACGGACTGAACTATCGGGACGTGCTA,-0.0099
CACGGTATCGGGTATCGGGACGTGCTA,1.44

# Series 3
# Target: RING finger protein unkempt homolog, zinc fingers 1-6, GST-SBP tag (UNK, Homo sapiens, UniProt Q9C0B0, residues 30-357)
# Chain of UniProt Q9C0B0 (30-357, looked up): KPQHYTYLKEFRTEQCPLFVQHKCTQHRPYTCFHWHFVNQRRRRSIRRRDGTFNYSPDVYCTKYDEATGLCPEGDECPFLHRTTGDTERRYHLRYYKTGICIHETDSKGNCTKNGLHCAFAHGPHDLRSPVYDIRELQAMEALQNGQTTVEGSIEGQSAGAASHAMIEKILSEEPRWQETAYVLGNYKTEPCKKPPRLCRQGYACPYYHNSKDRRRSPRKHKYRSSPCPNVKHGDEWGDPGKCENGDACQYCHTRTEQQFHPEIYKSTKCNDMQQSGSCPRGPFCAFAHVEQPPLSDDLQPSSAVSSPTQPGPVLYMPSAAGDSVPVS
# Technique: RNA Bind-n-Seq
# Molecule type: RNA
# Matrix: in vitro
# Concentration: not given
# Setting: RNA with constant flanks, human-mouse chimeric sites, ends assumed
# Reference: input RNA pool
# Direction: higher = stronger binding
Oligonucleotide,bound/input enrichment [ratio]
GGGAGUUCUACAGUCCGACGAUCUUCAAAGGCUGUGUUAUCUGUGUCAUUACUUGGGAGACUCUGGGGGAGGGAAAUUCUGUUCUUUUGUUUAAUUUUCCCCCAAAUGAAGCCAAAGUGUGUGUUGAAGAACUGAGAAAAAAUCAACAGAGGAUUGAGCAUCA,0.22
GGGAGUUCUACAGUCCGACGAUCUAAGUUAUUUUGUACAGCUUUGUAAAUUCUUAACAUUUUUAUAUUGCACAUUUUAUGUUGUUUGGGUGCUUUAUUAAAUUAAGUACAUAGCUAAGGUAAUGAACAUCUUUUUCAGUAAUUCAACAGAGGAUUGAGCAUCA,0.719
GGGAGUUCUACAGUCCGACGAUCCUCAUGGCUGCAGAAACAGGAAGUGGAAAAACUGGUGCUUUUAGUAUUCCCGUUAUCCAGAUAGUGUAUGAAACUCUGAAAGACCAACAGGAAGGAAAGAAAGGGAAAACAACUAUUAAACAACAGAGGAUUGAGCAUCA,0.621
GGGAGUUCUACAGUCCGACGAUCUCAACAGACAACAUCAAAUACCAGCCUAAAGGGGGGCAGGUACAAAUUGUUACUAAGAAAAUAGACCUAAGCCAUGUGACAUCCAAAUGUGGCUCUCUGAAGAACAUCCGUCACAGGCCACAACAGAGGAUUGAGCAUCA,0.507
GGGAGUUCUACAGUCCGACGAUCGUAAUGGACGUCAACACUGCUCUACAAGAGGUGCUGAAGACCGCCCUCAUCCACGAUGGCCUAGCACGUGGAAUUCGCGAAGCUGCCAAAGCCUUAGACAAGCGCCAAGCCCAUCUUUGUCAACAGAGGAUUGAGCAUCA,0.237
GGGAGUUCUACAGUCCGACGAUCAGAAUCUUGGGACUGUUUUACUUAAUUGGUCAUUGAUAGCUUAACAAGCAUGGAGAUAAGAUUAGAAGUUUUGACAUCAACAGGUAUUAAGCAGAAAAAACCAUGGCCACGUGUCUCCUGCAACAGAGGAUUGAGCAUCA,0.344
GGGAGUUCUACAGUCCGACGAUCUUCAAAGAAAAGGGCAGUUCAUAAAUAUCAUAAGUAACUCUGGGGGAGGGAAAUUCUGUUCUUUUGUUUAAUUUUCCCCCAAAUGAAGCCAAAGUGUUUUUUAAGGAACUGAGAAAAAAUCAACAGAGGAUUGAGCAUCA,0.331
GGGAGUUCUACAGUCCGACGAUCAAAUCGUGUGUGUCCAAUAUUGAAAGUGCUUUAUCUACACUCCAGUAUGUAAGCAGUAUAGUAGUUUCUUUAGAGAAUAGGUCAGCCAUUGUAAAGUAUAAUGCAAGCUCAGUCACUCCACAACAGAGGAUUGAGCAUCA,27.7

# Series 4
# Target: Ras GTPase-activating protein-binding protein 1, full length (G3BP1, Homo sapiens, UniProt Q13283)
# Chain of UniProt Q13283 (whole entry, looked up): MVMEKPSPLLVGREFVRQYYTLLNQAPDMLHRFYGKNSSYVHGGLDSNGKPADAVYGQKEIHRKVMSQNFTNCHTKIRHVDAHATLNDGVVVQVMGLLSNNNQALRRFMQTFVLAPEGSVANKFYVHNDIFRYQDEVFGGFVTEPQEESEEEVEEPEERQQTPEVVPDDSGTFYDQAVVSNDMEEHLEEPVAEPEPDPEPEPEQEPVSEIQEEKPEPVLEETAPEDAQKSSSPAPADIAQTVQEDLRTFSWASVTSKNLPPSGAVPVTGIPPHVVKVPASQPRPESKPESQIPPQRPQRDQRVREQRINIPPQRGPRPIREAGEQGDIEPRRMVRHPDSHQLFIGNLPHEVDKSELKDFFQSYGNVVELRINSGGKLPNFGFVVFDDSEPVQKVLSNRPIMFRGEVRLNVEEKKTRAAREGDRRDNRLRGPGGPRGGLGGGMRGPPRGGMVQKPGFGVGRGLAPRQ
# Technique: RNA Bind-n-Seq
# Molecule type: RNA
# Matrix: in vitro
# Concentration: 200 nM
# Setting: whole 134-nt RNA, ends assumed
# Together with: 150 mM KCl
# Reference: input library
# Direction: higher = stronger binding
Oligonucleotide,log2 enrichment
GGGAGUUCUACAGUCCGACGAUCCCUGUGCUACACAUCGUAUGUACCGAAUCGUGUGUGUGUGUGUGUGUGUGUGUGUGUGUGUAAAGUAUUAUGUUACGCCGUUCGGAUCUGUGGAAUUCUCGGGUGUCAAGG,0.961
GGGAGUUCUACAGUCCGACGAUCUCAAGUCCUGUGCUACACAUCGUAUGUACCGAAUCGGGCCCGGCCCGGCCCGGGAAAGUAUUAUGUUACGCCGUUCGGAUCUGCACUUCCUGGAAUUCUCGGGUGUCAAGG,-0.666
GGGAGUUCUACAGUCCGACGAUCUCCUCAAGUCCUGUGCUACACAUCGUAUGUACCGAAUCGGAGGGGAGGAGGAAAGUAUUAUGUUACGCCGUUCGGAUCUGCACUUCCAGCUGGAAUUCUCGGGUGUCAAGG,-0.4
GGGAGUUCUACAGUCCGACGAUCAAGUCCUGUGCUACACAUCGUAUGUACCGAAUCGGUUUUGGUUUUGGGUUUUGGGGAAAGUAUUAUGUUACGCCGUUCGGAUCUGCACUUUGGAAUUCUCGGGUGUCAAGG,-1.01
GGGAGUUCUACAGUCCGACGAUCAGUCCUGUGCUACACAUCGUAUGUACCGAAUCGGGUUUGGGAAAGGGUUUUUUUGGGAAAGUAUUAUGUUACGCCGUUCGGAUCUGCACUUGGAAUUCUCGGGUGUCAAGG,-0.158
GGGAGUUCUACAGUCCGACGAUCACCAUGCAGGUGGGCAUCUUUGGGAAGUGGGGCAAGGGGGGGAUAGGGAGGGGGGUAACACUUUGGGAACAGGUGGUCCCAAGUCGUUUCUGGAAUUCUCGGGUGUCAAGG,1.02
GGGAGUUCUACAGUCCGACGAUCCAAGUCCUGUGCUACACAUCGUAUGUACCGAAUCGGGGUGGGGAAAGGGGUGGGGAAAGUAUUAUGUUACGCCGUUCGGAUCUGCACUUCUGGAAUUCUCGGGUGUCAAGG,1.36
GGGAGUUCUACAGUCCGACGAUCCUCAAGUCCUGUGCUACACAUCGUAUGUACCGAAUCGGGGUUGGGUUGGUUGGGAAAGUAUUAUGUUACGCCGUUCGGAUCUGCACUUCCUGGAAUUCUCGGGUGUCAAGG,0.579
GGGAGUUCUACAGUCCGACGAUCCCUGUGCUACACAUCGUAUGUACCGAAUCGGGUUUUUUGGGGUUUUUUGGUUUUUUGGGGAAAGUAUUAUGUUACGCCGUUCGGAUCUGCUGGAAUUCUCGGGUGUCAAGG,-0.731
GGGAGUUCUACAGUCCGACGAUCUCCUGUGCUACACAUCGUAUGUACCGAAUCGGGGAAAGGGGAAAGGGGAAAAAAAGGGGAAAGUAUUAUGUUACGCCGUUCGGAUCUGCAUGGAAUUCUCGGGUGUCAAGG,0.605

# Excerpt of the above (series 4):
Oligonucleotide,log2 enrichment
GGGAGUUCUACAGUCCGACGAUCUCAAGUCCUGUGCUACACAUCGUAUGUACCGAAUCGGGCCCGGCCCGGCCCGGGAAAGUAUUAUGUUACGCCGUUCGGAUCUGCACUUCCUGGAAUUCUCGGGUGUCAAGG,-0.666
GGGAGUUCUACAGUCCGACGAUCUCCUCAAGUCCUGUGCUACACAUCGUAUGUACCGAAUCGGAGGGGAGGAGGAAAGUAUUAUGUUACGCCGUUCGGAUCUGCACUUCCAGCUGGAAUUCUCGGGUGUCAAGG,-0.4
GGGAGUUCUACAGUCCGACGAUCAAGUCCUGUGCUACACAUCGUAUGUACCGAAUCGGUUUUGGUUUUGGGUUUUGGGGAAAGUAUUAUGUUACGCCGUUCGGAUCUGCACUUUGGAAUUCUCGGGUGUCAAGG,-1.01
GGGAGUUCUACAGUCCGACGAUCAGUCCUGUGCUACACAUCGUAUGUACCGAAUCGGGUUUGGGAAAGGGUUUUUUUGGGAAAGUAUUAUGUUACGCCGUUCGGAUCUGCACUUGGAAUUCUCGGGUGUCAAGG,-0.158
